Experimental data of several laboratories.
Each numbered part is a random draw from the data of one study; scales do not carry over between parts.
UniProt Q15831, sequence (whole entry, looked up): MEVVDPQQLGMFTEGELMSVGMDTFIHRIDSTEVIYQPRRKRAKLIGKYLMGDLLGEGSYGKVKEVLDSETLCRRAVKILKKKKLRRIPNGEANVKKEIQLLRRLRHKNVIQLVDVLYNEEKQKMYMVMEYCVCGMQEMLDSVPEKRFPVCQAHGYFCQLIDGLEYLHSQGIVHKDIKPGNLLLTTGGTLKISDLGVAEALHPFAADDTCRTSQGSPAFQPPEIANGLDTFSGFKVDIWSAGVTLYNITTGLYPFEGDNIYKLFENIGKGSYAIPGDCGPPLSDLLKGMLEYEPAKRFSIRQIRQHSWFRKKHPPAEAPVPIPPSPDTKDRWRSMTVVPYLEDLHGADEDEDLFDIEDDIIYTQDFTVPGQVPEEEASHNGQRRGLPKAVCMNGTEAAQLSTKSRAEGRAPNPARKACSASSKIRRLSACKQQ
UniProt P57059, sequence (whole entry, looked up): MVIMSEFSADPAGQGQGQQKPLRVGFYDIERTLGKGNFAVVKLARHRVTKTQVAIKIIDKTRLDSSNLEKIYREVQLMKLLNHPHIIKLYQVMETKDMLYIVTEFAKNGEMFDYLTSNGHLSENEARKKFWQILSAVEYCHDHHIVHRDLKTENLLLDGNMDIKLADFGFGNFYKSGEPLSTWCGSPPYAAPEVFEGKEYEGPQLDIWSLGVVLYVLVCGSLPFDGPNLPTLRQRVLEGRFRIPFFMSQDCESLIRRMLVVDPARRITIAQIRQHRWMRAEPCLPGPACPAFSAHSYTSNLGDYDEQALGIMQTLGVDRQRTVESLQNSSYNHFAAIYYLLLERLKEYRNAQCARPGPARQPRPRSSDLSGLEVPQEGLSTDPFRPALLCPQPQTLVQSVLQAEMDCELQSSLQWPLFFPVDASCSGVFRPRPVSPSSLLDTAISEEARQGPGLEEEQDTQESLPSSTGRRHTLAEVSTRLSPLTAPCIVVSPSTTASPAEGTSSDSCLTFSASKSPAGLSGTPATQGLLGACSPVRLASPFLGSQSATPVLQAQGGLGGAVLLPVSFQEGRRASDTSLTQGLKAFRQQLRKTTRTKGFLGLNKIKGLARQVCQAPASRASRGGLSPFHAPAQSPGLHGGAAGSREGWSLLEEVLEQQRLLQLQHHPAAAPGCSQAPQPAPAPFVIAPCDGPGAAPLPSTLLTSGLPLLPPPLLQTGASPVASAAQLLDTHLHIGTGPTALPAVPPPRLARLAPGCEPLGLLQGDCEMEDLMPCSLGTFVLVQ
UniProt Q16539, sequence (whole entry, looked up): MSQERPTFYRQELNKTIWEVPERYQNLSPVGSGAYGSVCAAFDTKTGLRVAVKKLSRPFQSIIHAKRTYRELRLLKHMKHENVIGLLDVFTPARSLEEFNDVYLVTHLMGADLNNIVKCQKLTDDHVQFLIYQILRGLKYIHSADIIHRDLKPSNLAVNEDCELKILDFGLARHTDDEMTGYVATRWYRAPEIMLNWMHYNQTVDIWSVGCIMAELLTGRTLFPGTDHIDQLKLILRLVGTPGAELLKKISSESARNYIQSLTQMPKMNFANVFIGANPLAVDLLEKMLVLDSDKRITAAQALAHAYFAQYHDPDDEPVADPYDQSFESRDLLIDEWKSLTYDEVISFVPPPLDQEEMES

Block 1
Target: DNA polymerase theta, helicase domain (POLQ, Homo sapiens, UniProt O75417)
UniProt O75417, sequence (whole entry, looked up): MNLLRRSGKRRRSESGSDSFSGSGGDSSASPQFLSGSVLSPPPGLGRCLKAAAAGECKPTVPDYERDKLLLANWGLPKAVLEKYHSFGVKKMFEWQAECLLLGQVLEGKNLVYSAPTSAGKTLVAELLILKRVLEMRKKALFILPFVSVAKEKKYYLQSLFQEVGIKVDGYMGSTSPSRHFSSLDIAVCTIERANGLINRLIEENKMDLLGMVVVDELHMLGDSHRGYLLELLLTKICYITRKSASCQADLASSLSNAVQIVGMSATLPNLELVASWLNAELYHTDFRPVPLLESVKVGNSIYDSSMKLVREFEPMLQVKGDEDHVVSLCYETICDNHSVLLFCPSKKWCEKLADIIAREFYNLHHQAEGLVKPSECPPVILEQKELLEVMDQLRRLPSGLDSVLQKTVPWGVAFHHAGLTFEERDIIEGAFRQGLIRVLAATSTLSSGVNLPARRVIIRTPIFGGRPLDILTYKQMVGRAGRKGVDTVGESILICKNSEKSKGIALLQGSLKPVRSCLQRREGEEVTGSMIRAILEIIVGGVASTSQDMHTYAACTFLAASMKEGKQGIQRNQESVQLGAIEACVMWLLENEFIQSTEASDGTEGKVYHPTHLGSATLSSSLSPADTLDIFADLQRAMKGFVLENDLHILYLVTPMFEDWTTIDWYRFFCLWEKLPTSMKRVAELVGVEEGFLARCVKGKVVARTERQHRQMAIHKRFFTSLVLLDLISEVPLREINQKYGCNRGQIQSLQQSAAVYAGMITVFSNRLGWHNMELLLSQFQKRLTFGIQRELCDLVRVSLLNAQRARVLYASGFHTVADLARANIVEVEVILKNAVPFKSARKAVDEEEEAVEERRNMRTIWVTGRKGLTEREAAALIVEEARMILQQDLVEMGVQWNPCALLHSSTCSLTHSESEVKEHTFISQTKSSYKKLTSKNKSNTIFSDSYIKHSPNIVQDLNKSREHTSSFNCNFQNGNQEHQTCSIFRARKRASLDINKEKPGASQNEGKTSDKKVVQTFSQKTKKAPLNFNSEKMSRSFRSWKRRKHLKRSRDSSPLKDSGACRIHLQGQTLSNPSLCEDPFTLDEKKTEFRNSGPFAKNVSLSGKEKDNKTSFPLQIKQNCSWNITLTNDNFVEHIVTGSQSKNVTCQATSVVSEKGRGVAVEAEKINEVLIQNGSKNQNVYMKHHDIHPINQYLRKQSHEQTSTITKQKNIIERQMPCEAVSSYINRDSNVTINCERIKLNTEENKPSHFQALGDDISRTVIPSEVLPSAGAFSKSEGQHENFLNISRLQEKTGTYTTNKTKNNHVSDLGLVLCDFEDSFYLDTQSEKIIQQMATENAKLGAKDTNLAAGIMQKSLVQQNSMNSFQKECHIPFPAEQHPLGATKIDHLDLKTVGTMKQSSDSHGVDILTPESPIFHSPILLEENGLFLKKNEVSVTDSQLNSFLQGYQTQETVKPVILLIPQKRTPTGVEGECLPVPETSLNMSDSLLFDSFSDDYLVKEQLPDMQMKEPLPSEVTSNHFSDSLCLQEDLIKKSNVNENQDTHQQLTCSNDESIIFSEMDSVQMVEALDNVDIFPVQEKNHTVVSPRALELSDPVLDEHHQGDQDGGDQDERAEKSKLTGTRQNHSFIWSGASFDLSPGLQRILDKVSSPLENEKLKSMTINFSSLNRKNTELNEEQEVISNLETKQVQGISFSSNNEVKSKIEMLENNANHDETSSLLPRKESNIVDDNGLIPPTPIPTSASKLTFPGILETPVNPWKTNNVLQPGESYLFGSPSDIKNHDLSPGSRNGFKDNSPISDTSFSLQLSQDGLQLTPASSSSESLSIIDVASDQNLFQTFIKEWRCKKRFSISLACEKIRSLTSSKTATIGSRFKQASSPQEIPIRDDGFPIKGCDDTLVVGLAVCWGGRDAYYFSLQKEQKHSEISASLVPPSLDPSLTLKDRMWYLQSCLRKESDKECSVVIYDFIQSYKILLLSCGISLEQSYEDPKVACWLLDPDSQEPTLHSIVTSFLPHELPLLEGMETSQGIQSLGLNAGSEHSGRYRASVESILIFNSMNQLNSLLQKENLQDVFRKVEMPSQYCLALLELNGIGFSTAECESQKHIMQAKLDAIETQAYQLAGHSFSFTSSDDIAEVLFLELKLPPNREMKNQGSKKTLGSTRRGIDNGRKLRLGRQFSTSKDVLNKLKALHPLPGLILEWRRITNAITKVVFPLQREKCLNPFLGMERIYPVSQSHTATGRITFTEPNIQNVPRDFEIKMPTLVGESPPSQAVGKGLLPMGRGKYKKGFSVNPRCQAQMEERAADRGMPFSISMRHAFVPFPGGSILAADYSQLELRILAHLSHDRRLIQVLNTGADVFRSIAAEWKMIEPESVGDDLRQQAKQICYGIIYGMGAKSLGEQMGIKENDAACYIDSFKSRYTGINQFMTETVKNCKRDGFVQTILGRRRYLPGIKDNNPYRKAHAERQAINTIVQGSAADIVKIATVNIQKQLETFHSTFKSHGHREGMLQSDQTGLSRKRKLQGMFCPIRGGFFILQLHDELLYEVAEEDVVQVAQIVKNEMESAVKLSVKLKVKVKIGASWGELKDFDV
Action: inhibitor
Tested at: concentration not given
Setting: average
Added: without ssDNA
Measurement: remaining activity
O=C(O)[C@]1(Cc2cccc(Nc3nccs3)n2)CC[C@@H](Oc2cccc(Cl)c2F)CC1: 53.4%
Cc1ccc(C(=O)Nc2ccc(S(=O)(=O)[O-])c3cc(S(=O)(=O)[O-])cc(S(=O)(=O)[O-])c23)cc1NC(=O)c1cccc(NC(=O)Nc2cccc(C(=O)Nc3cc(C(=O)Nc4ccc(S(=O)(=O)[O-])c5cc(S(=O)(=O)[O-])cc(S(=O)(=O)[O-])c45)ccc3C)c2)c1.[Na+].[Na+].[Na+].[Na+].[Na+].[Na+]: 8.57%
CSc1ccc(/C=C/c2nc3ccccc3n2S(=O)(=O)c2ccc(Br)cc2)cc1: 60.9%
COc1cccc(C2C3=C(NN/C3=C3/C=CC=CC3=O)C(=O)N2CCc2ccc(OC)c(OC)c2)c1 (stereo not shown): 66.4%
Cc1ccc(NC(=O)CSc2ncc(S(=O)(=O)c3ccc(C(C)C)cc3)c(=O)[nH]2)cc1C: 84.7%
CC(=O)Oc1ccccc1C(=O)Nc1ncc([N+](=O)[O-])s1: 49%
CCCCCCCC/C=C\CCCCCCCC(=O)O: 99.4%
C[C@H]1[C@H](C)CC[C@]2(C(=O)O)CC[C@]3(C)C(=CC[C@@H]4[C@@]5(C)C[C@@H](O)[C@H](O)[C@@](C)(CO)[C@@H]5CC[C@]43C)[C@H]12: 56.7%

Block 2
Compound: O=C(Nc1cccnn1)N1CC(C/C=C/c2cncc(Oc3ccc(C(F)(F)F)cn3)n2)C1
Read-out: cell-free assay
Technique: competition with immobilised ligand
Tested at: 1 µM
Measurement: remaining binding
MAPK14 (Homo sapiens, UniProt Q16539): 100%
FYN (Homo sapiens, UniProt P06241): 100%
Tyrosine-protein kinase ABL1, phosphorylated (ABL1, Homo sapiens, UniProt P00519, T315I): 80%
Tyrosine-protein kinase ABL1, non-phosphorylated (ABL1, Homo sapiens, UniProt P00519, Q252H): 100%
PIM3 (Homo sapiens, UniProt Q86V86): 100%

Block 3
Target: Serine/threonine-protein kinase Nek4 (NEK4, Homo sapiens, UniProt P51957)
UniProt P51957, sequence (whole entry, looked up): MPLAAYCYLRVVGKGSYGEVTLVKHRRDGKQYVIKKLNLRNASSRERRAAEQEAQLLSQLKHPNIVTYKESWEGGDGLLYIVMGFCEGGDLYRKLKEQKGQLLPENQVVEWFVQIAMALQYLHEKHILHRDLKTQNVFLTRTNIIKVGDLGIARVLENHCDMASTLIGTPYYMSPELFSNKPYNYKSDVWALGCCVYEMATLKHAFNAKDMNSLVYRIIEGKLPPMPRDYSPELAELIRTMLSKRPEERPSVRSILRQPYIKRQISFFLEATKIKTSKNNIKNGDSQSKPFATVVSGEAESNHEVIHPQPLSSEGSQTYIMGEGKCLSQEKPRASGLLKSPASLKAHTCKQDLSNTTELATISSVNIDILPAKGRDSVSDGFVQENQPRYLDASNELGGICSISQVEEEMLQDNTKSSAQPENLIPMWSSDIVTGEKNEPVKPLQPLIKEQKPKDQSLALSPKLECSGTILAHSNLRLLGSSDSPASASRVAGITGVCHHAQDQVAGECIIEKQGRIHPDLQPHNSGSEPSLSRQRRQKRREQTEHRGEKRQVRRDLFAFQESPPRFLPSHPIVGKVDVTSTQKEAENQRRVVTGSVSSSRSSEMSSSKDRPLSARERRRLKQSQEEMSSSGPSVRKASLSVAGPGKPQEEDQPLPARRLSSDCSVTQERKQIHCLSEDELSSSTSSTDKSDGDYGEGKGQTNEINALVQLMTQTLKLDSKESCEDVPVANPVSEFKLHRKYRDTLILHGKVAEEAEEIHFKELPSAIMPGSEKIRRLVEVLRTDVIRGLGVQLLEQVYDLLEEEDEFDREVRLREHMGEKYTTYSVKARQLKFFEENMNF
Read-out: enzyme activity
Action: inhibitor
Tested at: 0.5 µM
Relative to: control
Measurement: remaining activity
Cc1cccc(-c2[nH]c(C(C)(C)C)nc2-c2ccc3c(c2)OCO3)n1: 94.9%
NCCNc1ncc(C(N)=O)c(Nc2cccc(C(F)(F)F)c2)n1: 97.5%
CCOC(=O)c1c(C)[nH]c(/C=C2\C(=O)Nc3ccccc32)c1C: 95.1%
COc1cc2nccc(Oc3ccc(NC(=S)NC(=O)c4ccccc4C)cc3)c2cc1OC: 97.6%
Nc1ccc2ncnc(NCCc3ccc(Oc4ccccc4)cc3)c2c1: 97.8%
Cn1sc(=O)n(Cc2ccccc2)c1=O: 98%
Nc1[nH]nc2nc3ccccc3nc12: 97.8%
O=S(=O)(c1cccc2cnccc12)N1CCCNCC1: 90.7%
COc1ccc(C(=O)Nc2sc3c(c2C(N)=O)CCCC3)cc1OC: 104%
O=C1NC(=O)C(c2cn(CCCO)c3ncccc23)=C1c1cnccn1: 85.1%
O=C(CCCc1ccc(-c2ccccc2F)cc1)Nc1ccc(O)cc1: 103%
COc1cc2ncnc(Nc3ccc(F)c(Cl)c3)c2cc1OCCCN1CCOCC1: 103%
Oc1ccc(-c2nc(-c3ccncc3)c(-c3ccc(F)cc3)[nH]2)cc1: 94%
COc1cc2ncnc(Nc3ccc(Oc4ccccc4)cc3)c2cc1OC: 96.8%
O=C(Nc1cccc(Nc2cc(Nc3cccc(C(F)(F)F)c3)ncn2)c1)C1CC1: 90.6%
COc1ccc(CNC(=O)Nc2ncc([N+](=O)[O-])s2)cc1: 91%

Block 4
Structure (SMILES): Cc1ccc(NC(=O)c2ccnc(C(F)(F)F)c2)cc1-c1cc(OCCO)nc(N2CCOCC2)c1
Read-out: binding
Tested at: 1 µM
Measurement: remaining binding
STK11 (Homo sapiens, UniProt Q15831); competition with immobilised ligand: 100%
Myosin-IIIb (MYO3B, Homo sapiens, UniProt Q8WXR4); competition with immobilised ligand: 100%
SIK1 (Homo sapiens, UniProt P57059); competition with immobilised ligand: 94%
CHEK1 (Homo sapiens, UniProt O14757): 100%
NEK6 (Homo sapiens, UniProt Q9HC98): 81%
